# Measured values collected from several papers.
# Each numbered part is a random draw from the data of one study; scales do not carry over between parts.
# Sequence of UniProt P49137 (whole entry, looked up): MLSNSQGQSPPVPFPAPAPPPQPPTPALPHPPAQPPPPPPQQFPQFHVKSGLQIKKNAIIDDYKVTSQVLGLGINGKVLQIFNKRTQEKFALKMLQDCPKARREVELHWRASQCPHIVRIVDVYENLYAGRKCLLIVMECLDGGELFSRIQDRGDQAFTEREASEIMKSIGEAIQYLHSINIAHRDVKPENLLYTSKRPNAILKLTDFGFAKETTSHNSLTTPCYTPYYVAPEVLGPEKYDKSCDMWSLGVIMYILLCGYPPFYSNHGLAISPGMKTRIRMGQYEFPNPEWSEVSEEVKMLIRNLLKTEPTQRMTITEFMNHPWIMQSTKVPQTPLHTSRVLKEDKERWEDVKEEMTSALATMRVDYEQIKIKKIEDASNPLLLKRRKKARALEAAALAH
# Sequence of UniProt Q9Y6E0 (whole entry, looked up): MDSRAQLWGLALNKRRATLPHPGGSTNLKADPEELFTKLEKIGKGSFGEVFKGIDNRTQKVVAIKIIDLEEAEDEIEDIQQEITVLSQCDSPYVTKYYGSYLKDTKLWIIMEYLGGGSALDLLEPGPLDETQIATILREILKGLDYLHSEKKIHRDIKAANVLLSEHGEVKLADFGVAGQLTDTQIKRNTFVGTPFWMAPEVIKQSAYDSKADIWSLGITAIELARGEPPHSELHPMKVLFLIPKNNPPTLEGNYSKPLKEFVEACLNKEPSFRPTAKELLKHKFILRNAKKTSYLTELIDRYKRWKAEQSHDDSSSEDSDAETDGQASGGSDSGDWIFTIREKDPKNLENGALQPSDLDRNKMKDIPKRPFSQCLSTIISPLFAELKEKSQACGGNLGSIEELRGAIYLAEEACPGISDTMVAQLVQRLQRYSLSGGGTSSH
# Sequence of UniProt Q04759 (whole entry, looked up): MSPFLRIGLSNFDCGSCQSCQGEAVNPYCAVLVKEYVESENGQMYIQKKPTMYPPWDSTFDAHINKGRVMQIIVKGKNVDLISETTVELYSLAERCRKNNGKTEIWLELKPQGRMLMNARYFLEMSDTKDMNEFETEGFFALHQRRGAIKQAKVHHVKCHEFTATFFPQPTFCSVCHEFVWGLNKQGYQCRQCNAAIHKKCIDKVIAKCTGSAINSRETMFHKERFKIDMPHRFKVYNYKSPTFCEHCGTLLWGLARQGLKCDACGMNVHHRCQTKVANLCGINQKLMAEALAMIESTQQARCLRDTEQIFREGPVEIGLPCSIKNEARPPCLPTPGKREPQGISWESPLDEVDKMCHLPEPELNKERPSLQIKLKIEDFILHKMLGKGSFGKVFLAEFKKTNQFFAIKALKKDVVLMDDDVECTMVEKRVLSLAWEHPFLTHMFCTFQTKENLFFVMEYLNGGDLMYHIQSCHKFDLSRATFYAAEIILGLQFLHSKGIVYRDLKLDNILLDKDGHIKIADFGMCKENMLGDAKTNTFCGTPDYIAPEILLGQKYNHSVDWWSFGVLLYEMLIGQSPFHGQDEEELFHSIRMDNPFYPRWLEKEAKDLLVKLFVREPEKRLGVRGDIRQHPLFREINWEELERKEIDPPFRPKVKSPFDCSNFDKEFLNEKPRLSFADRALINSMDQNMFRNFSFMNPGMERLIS
# Sequence of UniProt P48730 (whole entry, looked up): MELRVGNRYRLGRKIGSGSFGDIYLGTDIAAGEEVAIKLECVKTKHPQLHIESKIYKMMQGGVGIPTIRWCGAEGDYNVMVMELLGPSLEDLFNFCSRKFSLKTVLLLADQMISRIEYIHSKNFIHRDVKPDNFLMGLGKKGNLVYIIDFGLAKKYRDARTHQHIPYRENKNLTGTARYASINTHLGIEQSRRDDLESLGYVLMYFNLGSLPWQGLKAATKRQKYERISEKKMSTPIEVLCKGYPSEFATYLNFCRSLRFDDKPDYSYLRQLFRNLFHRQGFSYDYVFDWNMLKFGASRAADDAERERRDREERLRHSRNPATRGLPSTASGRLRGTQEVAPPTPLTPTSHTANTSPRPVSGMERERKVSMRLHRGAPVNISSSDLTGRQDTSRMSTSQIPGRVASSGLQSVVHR
# Sequence of UniProt Q6P2M8 (whole entry, looked up): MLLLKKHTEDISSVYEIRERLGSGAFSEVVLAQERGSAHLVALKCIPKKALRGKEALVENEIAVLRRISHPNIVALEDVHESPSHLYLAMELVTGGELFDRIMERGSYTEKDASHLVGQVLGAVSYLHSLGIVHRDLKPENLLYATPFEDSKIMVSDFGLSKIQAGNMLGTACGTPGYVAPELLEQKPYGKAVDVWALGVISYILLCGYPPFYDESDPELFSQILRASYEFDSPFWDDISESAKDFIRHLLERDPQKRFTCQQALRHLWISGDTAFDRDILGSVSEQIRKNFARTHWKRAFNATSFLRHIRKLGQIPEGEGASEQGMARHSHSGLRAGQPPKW
# Sequence of UniProt Q9BUB5 (whole entry, looked up): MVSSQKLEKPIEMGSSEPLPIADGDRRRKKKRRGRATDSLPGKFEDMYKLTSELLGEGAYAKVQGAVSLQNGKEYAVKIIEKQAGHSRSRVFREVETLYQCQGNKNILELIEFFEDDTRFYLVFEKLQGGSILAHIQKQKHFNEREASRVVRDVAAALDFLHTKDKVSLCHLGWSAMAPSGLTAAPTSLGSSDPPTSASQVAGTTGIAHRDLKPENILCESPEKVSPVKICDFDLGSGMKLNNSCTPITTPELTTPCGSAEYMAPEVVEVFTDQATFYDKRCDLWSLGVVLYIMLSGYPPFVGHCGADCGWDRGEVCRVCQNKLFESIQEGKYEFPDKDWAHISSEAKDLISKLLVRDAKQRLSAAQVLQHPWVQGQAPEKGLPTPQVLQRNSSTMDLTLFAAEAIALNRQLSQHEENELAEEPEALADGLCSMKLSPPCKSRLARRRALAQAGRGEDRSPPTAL
# Sequence of UniProt P28482 (whole entry, looked up): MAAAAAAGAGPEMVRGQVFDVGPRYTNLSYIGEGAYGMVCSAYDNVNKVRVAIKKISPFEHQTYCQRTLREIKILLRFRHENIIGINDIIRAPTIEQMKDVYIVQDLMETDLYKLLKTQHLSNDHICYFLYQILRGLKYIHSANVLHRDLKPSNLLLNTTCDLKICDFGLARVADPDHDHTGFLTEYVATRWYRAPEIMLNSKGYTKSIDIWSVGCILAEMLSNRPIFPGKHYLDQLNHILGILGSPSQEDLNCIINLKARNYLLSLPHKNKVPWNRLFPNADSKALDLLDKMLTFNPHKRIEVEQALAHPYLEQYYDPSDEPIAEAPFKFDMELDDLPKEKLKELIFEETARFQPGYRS

# Series 1 — action: degrader; method: HiBiT; cell line: HEK293; time: 6 h
# SMILES: O=C1CCC(N2Cc3cc(C4CCN(Cc5ccccc5)CC4)ccc3C2=O)C(=O)N1 (stereo not shown)
# SALL4: Sal-like protein 4 (SALL4, Homo sapiens, UniProt Q9UJQ4)
# Sequence of UniProt Q9UJQ4 (whole entry, looked up): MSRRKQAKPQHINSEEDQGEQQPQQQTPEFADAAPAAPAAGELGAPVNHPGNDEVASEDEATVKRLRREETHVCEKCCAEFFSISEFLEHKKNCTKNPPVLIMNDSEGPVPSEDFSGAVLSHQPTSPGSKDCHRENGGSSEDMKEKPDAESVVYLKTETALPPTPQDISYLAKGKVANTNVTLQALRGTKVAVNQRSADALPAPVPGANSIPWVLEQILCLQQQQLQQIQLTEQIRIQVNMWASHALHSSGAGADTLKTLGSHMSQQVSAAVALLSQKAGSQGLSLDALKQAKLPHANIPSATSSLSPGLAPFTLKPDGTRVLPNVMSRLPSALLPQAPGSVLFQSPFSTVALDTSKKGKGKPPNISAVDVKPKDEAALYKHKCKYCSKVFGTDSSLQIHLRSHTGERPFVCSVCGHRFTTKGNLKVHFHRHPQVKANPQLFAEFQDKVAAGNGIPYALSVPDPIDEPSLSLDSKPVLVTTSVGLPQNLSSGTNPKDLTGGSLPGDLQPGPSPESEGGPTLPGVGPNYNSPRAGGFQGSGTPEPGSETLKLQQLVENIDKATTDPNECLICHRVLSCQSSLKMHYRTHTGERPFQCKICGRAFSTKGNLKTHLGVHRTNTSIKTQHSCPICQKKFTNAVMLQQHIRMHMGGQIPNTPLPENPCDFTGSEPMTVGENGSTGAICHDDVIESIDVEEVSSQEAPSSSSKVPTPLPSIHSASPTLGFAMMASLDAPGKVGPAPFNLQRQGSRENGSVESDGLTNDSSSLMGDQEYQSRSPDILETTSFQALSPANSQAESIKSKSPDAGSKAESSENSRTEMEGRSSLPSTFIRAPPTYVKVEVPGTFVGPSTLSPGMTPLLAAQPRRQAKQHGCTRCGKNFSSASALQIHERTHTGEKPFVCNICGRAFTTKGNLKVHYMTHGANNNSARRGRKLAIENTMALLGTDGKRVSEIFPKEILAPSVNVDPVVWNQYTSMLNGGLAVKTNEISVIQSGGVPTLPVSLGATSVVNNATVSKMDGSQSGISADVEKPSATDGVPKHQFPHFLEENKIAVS
# CSNK1A1: Casein kinase I isoform alpha (CSNK1A1, Homo sapiens, UniProt P48729)
# Sequence of UniProt P48729 (whole entry, looked up): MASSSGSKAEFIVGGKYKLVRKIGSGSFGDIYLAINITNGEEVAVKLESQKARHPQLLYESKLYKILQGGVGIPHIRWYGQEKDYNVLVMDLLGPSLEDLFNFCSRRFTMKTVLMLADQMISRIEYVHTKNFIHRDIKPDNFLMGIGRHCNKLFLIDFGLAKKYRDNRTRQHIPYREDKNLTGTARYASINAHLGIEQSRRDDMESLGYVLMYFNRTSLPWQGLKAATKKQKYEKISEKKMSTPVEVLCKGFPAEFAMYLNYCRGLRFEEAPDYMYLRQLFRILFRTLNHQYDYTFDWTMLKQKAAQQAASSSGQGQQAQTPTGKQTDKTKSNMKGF
target,conditions,remaining protein
"Zinc finger protein Aiolos (Homo sapiens, UniProt Q9UKT9)",3.333 µM,82.8%
SALL4,0.1235 µM,56.5%
CSNK1A1,0.04115 µM,91.6%
CSNK1A1,0.3704 µM,92.2%
SALL4,0.001524 µM,70%

# Series 2 — host: idiopathic pulmonary fibrosis patients
# SMILES: CC(C)n1cnc(-c2ccc(F)cc2)c1-c1ncc(C(=O)Nc2ccc(N3CCN(C)CC3)cc2)[nH]1
assay,conditions,patients with hypothyroidism
phase 2a trial,"all arms pooled, grade 1 emergent event",0%
phase 2a trial,"30 mg once daily, grade 4 emergent event",0%
phase 2a trial,"60 mg once daily, grade 1 emergent event",0%
,"dose not given, all compound arms, grade 5",0%
phase 2a trial,"60 mg once daily, grade 3 emergent event",0%
phase 2a trial,"all arms pooled, grade 3 emergent event",0%
phase 2a trial,"60 mg once daily, grade 4 emergent event",0%

# Series 3 — action: inhibitor; tested at: 10 µM; relative to: control
# Target: Diamine acetyltransferase 1 (Homo sapiens, UniProt P21673)
# Construct (P21673 1-171): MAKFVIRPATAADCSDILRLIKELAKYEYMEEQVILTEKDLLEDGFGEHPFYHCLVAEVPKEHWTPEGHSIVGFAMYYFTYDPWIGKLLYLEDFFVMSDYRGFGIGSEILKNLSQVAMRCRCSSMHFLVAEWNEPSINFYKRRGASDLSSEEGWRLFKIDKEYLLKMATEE
Structure (SMILES),remaining activity [%]
C[C@H]1[C@H](C)CC[C@]2(C(=O)O)CC[C@]3(C)C(=CC[C@@H]4[C@@]5(C)C[C@@H](O)[C@H](O)C(C)(C)[C@@H]5CC[C@]43C)[C@H]12,97.1
CC1=CC[C@@]23C[C@@H]1C(C)(C)[C@@H]2CC[C@H]3C,80.8
O=c1ccoc2cc(O)cc(O)c12,82.2
CC(=O)c1ccc[nH]1,85.2
C[C@@H]1O[C@@H](OC[C@H]2O[C@@H](Oc3c(-c4ccc(O)cc4)oc4cc(O)cc(O)c4c3=O)[C@H](O)[C@@H](O)[C@@H]2O)[C@H](O)[C@H](O)[C@H]1O,110
O=C(CCCCCCCCc1ccc(O)c(O)c1)c1c(O)cccc1O,121
CC=CC(=O)C1=C(C)C=CCC1(C)C,99.4

# Series 4 — effect on: enzyme activity; action: inhibitor; tested at: 10 µM
# Target: Calcium/calmodulin-dependent protein kinase type II subunit alpha (CAMK2A, Homo sapiens, UniProt Q9UQM7)
# Sequence of UniProt Q9UQM7 (whole entry, looked up): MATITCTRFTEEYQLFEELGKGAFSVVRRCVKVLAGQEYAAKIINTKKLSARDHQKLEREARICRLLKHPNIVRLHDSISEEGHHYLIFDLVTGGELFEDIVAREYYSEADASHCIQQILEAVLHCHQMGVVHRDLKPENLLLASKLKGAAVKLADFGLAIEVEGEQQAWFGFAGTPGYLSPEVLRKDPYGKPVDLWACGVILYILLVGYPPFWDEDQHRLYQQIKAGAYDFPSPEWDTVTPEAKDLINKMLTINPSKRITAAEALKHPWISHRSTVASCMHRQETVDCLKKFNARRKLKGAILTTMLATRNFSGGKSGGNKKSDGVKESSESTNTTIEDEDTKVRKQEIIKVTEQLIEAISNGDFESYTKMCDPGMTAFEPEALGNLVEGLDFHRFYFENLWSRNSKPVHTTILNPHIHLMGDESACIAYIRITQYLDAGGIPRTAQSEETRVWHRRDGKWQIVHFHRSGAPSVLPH
Structure (SMILES),inhibition
CCCCCCCCOC(C)=O,-23%
N#Cc1ccc(C(c2ccc(C#N)cc2)n2cncn2)cc1,-6%
O=C(O)CP(=O)(O)O,0%
COc1c(OCCCN2CCOCC2)ccc2c1N=C(NC(=O)c1cnc(N)nc1)N1CCN=C21,0%
C=C1CCC[C@]2(C)C[C@]3(O)OC(=O)C(C)=C3C[C@@H]12,3%
CC(=O)O[C@@H]1C[C@]23C4=CC[C@@]5(C)[C@H](C(=O)O)[C@@](C)([C@H](C)C(C)C)CC[C@]5(C)[C@H]4CC[C@H]2[C@@](C)(COC3O)[C@H]1O[C@@H]1O[C@H](CO)[C@@H](O)[C@H](O)[C@H]1O (stereo partly shown),-8%
O=c1cc(-c2ccccc2)oc2cc(O)ccc12,2%
O=C(/C=C/c1ccc(O)c(O)c1)OC1[C@H](O)CC(OC(=O)/C=C/c2ccc(O)c(O)c2)(C(=O)O)C[C@H]1O (stereo partly shown),-3%

# Series 5 — method: competition with immobilised ligand; tested at: 0.1 µM
# SMILES: CCOC(=O)c1cc2cc(-c3cc(C(=O)NCc4ccc(C(=O)O)cc4)nn3C)ccc2[nH]1
target,assay,remaining binding [%]
"MAP2K3 (Homo sapiens, UniProt P46734)",cell-free assay,100
"STK24 (Homo sapiens, UniProt Q9Y6E0)",cell-free assay,92
"GRK2 (Homo sapiens, UniProt P25098)",cell-free assay,100
"Aurora kinase C (AURKC, Homo sapiens, UniProt Q9UQB9)",cell-free assay,100
"FLT3 (Homo sapiens, UniProt P36888, F691L/ITD)",cell-free assay,72
"PRKCQ (Homo sapiens, UniProt Q04759)",cell-free assay,97
"GRK1 (Homo sapiens, UniProt Q15835)",cell-free assay,95
"MAP4K2 (Homo sapiens, UniProt Q12851)",cell-free assay,84
"MAPK1 (Homo sapiens, UniProt P28482)",cell-free assay,99
"STK32A (Homo sapiens, UniProt Q8WU08)",cell-free assay,75
"CAMK1G (Homo sapiens, UniProt Q96NX5)",cell-free assay,100
"ROCK2 (Homo sapiens, UniProt O75116)",cell-free assay,85
"WEE1 (Homo sapiens, UniProt P30291)",cell-free assay,90
"CSNK1D (Homo sapiens, UniProt P48730)",cell-free assay,81
"PRKAA2 (Homo sapiens, UniProt P54646)",cell-free assay,88
"PRKCI (Homo sapiens, UniProt P41743)",cell-free assay,87
"MKNK1 (Homo sapiens, UniProt Q9BUB5)",cell-free assay,75
"PHKG2 (Homo sapiens, UniProt P15735)",cell-free assay,100
"Ribosomal protein S6 kinase alpha-5, C-terminal kinase domain (RPS6KA5, Homo sapiens, UniProt O75582)",cell-free assay,100
"Tyrosine-protein kinase ABL1, phosphorylated (ABL1, Homo sapiens, UniProt P00519, E255K)",binding,88
"DMPK (Homo sapiens, UniProt Q09013)",cell-free assay,87
"FER (Homo sapiens, UniProt P16591)",cell-free assay,100
"PNCK (Homo sapiens, UniProt Q6P2M8)",cell-free assay,97
"FLT3 (Homo sapiens, UniProt P36888, D835V)",cell-free assay,90
"MAPKAPK2 (Homo sapiens, UniProt P49137)",cell-free assay,72

# Some of these lines once more (series 5):
target,assay,remaining binding [%]
"FER (Homo sapiens, UniProt P16591)",cell-free assay,100
"PNCK (Homo sapiens, UniProt Q6P2M8)",cell-free assay,97
"FLT3 (Homo sapiens, UniProt P36888, D835V)",cell-free assay,90
"MAPKAPK2 (Homo sapiens, UniProt P49137)",cell-free assay,72
